# Assay results pooled from the literature.
# Parts stem from different laboratories: compare values within a part only. Changes are numbered by the printed parent chain.

# Set 1 — technique: RNA Bind-n-Seq; molecule type: RNA; sample: in vitro; tested at: 200 nM; notes: whole 134-nt RNA, ends assumed; with: 150 mM KCl; relative to: input library; reading: higher = stronger binding
# Target: Ras GTPase-activating protein-binding protein 1, full length (G3BP1, Homo sapiens, UniProt Q13283)
# Chain of UniProt Q13283 (whole entry, looked up): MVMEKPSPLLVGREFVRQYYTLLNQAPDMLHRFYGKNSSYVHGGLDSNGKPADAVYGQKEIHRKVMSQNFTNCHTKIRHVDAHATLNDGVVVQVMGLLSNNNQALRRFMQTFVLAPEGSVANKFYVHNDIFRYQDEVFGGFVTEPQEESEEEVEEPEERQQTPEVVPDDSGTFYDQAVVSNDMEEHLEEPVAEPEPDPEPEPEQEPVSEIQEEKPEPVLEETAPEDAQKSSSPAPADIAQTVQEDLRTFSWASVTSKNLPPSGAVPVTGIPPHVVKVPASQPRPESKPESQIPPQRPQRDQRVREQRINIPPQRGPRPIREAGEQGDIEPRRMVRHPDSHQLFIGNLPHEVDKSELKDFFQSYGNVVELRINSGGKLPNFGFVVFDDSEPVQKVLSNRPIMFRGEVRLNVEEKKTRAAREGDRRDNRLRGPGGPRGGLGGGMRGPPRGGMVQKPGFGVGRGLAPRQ
Strand,log2 enrichment
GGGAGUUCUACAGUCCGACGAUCUGGCCCUGGUGGCAUGCGGGGAGGAAGAGGUGGCCUCAUGGAUCGUGGUGGUCCCGGUGGAAUGUUCAGAAGUGGCCGUGGUGGAGACAGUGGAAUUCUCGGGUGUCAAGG,0.442
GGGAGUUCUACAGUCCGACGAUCUGCUGUUAUCUGGAACUCCUACCUGUCCUGGAAGGCACAUCGGCUCUAAGCCUGCCUCACUCCAUCGUUUCCACCUUGCAGUGAUGCAGCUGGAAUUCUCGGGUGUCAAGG,-1.37
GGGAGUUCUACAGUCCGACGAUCUCCUGUGCUACACAUCGUAUGUACCGAAUCGGGGAAAAAAAGGGGUUUUUGGGGAGGGGAAAGUAUUAUGUUACGCCGUUCGGAUCUGCAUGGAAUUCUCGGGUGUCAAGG,0.705
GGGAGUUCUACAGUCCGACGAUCAGUCCUGUGCUACACAUCGUAUGUACCGAAUCGGGGCCCGGGGCCCGGGGCCCGGGGAAAGUAUUAUGUUACGCCGUUCGGAUCUGCACUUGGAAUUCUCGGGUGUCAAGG,-1.25
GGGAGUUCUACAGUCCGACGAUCUGGCUCUGGUGGCAUGCGGGGAGGAAGAGGUGGCCUCAUGGAUCGUGGUGGUCCCGGUGGAAUGUUCAGAGGUGGCCGUGGUGGAGACAGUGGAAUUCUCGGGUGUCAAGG,0.497
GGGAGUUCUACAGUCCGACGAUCUCCUCAAGUCCUGUGCUACACAUCGUAUGUACCGAAUCGGUGGAGGAAAGGAAAGUAUUAUGUUACGCCGUUCGGAUCUGCACUUCCAGCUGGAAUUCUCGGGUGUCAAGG,-0.57
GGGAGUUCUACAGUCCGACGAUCCAAGUCCUGUGCUACACAUCGUAUGUACCGAAUCAAAUUUAAAUUUAAAUUUAAAAAAGUAUUAUGUUACGCCGUUCGGAUCUGCACUUCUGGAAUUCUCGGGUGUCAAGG,-1.29
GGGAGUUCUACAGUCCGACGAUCUUGCGGCAGCCGCCCCCUUCUGCGCGGUCACGCCGAGCCAGCGCCUGGGCCUGGAACCGGGCCGUAGCCCCCCCAGUUUCGCCCACCACCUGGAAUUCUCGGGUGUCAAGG,0.396
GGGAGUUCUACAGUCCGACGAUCUUUGGUUAUGAACAGGAUUCGGAUUCACGUCUUGCCAACCAAUCGGGGGAGGAUCACUCCAGUGCCCAGGUCUCAGGAACCUCUGUCUUGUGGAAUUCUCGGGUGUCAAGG,-0.399

# Set 2 — technique: RNA Bind-n-Seq; molecule type: RNA; sample: in vitro; tested at: 365 nM; relative to: no-protein control; reading: higher = stronger binding
# Target: RNA binding protein fox-1 homolog 2, RRM domain, GST-SBP tag (RBFOX2, Homo sapiens, UniProt O43251-10, residues 100-194)
# Notes: natural RNA segment, single round, ends assumed
# Target sequence (chain): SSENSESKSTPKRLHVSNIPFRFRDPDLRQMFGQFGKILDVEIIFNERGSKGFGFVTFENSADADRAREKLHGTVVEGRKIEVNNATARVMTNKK
Strand,RBNS enrichment (R)
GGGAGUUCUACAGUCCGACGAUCCCCGCCACGGUGGAUGUAUGUGCGCUCACCUGAGCUUGCUUGGGCCCAGUGUGGGGGUGGCAGGCAGGUGAGGGCUCCGUUGCCUUGGUCUGGGGGCAGAAAUAAAAUCCUGGAAUUCUCGGGUGCCAA,1.92
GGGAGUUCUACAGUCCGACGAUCGCCAAUAAUUUAUAGCCUUUCCCUUAAAUCAAGAUUGAGUUUAAAAUUAUAGUUUGUCUUUUGUCUUAACAGUUCUGAAUGCUGUCCUCAAAGUAUAUAAUGUUUCAUGUUGGAAUUCUCGGGUGCCAA,0.483
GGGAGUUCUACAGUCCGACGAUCUUAUGAUCAGAGGCAGGAUGUCUGUGAGAUGGUUAGCUAGAGUUAGCAGUGUCCGGGGAGAGUGGCUUUAGACCAGUCAGUACCUUGCUCUUUGUGCAUGGUGCAUGUCAUGGAAUUCUCGGGUGCCAA,1.21
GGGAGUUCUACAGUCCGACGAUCCAUCUUCUGAGAGGGCUUCUCAGCCUGGAAACUAUGGAAACAGCAUCAAAGAGAGAAAAGAAUGUGGGGCGAUUCCGCUGCUCCACACCCCCAGCGGCCCAUCCCACACCUGGAAUUCUCGGGUGCCAA,0.502
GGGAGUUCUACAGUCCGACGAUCCUGCCUUUUUACAGUCACCUGAACAAUGACCCAUCAUCUCUUGCUUGCUUGAAAUCUUGCUGAAAUGUUCUCAUUUCCUGUUUGCUGUAUGGGCUCGGGUGGGAUGUUUGUGGAAUUCUCGGGUGCCAA,0.337
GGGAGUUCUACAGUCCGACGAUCUGCGCGUGGACUGGGCUGAGCUCCUCACCAUACACUAGUGCCGGCUUUUGUUUCCUGUAAACAGUGGUUGCAUGUGUAGGAAGUAACAAGCGAGUAUUCAGAUCAUACGAUGGAAUUCUCGGGUGCCAA,0.615
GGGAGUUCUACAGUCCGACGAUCUUUUCUGAACACCUAUGCAGGUCUUAUUUACAGUAGUUACUAAGGGAACACACAAAGAAUUACACAACGUUUUCCUCAAGAAAAUGGUACAAAACACAACCGAGGAGCGUUGGAAUUCUCGGGUGCCAA,0.549
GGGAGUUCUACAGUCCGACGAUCUCAGACCUCAAGGGGUAAACUGGACCCACCGGGGAAAGAAAGGGAAGAGGGGAGACCUCUUCUACGACCCCUCCCACUCGGGCCCGAGUAGGGCCUGGGACCCCGAAUGUUGGAAUUCUCGGGUGCCAA,0.31

# Set 3 — target: CCNF, cyclin fold, Cln2 fusion (human); technique: yeast growth competition, sequencing; sample: yeast; notes: strong parent motif; relative to: not given; reading: higher = stronger binding
# Parent: GMNC docking peptide (human); KNAKRNLSSEFAN; partner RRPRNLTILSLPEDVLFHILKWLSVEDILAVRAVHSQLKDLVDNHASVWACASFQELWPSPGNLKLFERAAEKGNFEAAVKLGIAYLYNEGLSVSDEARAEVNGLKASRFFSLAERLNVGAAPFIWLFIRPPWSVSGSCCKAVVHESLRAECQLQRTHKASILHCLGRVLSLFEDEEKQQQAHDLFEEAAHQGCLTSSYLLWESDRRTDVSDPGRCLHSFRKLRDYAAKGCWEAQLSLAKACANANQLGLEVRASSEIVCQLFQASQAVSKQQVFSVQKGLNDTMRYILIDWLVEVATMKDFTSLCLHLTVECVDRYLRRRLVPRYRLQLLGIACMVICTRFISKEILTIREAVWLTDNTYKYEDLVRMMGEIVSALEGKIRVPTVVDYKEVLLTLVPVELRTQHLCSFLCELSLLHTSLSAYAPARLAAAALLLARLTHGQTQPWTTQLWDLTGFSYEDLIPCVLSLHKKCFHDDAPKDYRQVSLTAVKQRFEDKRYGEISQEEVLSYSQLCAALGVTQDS
Substitution,normalised enrichment score
S9V,1.13
L7S,0.0348
N6Y,-0.204
R5E,0.473
K4P,0.165
A3C,0.937
E10W,1.61
L7D,0.271
A3D,0.161
K4I,0.635
A12E,1.11
E10Y,0.838
E10Q,0.972
A3Y,0.328
N6F,0.61
S9H,1.08
N2Y,0.673
S8E,1.28
N6V,0.244
A3L,0.102
R5P,0.12
L7F,0.596
R5M,0.0868
N2P,0.218
S8Y,1.37

# Set 4 — technique: DHFR PCA, deep sequencing; sample: yeast; with: (+)-ABA 4.8 µM; relative to: wild-type fitted maximum; reading: higher = stronger binding
# Target: ABI1, truncated, D143A, DHFR fusion (Arabidopsis thaliana)
# Notes: methotrexate growth selection, single substitutions
# Parent: PYL1, truncated, DHFR fusion (Arabidopsis thaliana); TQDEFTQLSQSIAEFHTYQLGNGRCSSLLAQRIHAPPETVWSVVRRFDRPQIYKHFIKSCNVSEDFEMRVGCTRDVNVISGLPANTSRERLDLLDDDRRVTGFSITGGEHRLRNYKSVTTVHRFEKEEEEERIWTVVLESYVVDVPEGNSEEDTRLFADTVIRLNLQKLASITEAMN
Substitution,relative binding score
D3R,62.7%
E127F,68.2%
L91V,-2.28%
V78R,14.4%
A13G,62%
K54G,-4.79%
V100I,70.1%
E14F,3.82%
N149L,5.06%
F157I,1.16%
N77M,76.2%
N85P,3.5%
G102S,65.3%
A175N,81.8%
R69F,40.4%
I52R,60.1%
N165W,-4.93%
T120V,-3.52%
I133V,88.2%
A30V,72%
L166C,-1.5%
Q19L,48.3%
N149R,1.72%
D75W,76.6%
L93P,13.5%

# Repeated from above (set 3):
Substitution,normalised enrichment score
N6V,0.244
K4I,0.635
N6Y,-0.204
S8E,1.28
